# Results of several laboratories.
# Every numbered part comes from another study and shows a few of its results, in no order. Substitutions count along the parent as printed.
# Chain of UniProt P49427 (whole entry, looked up): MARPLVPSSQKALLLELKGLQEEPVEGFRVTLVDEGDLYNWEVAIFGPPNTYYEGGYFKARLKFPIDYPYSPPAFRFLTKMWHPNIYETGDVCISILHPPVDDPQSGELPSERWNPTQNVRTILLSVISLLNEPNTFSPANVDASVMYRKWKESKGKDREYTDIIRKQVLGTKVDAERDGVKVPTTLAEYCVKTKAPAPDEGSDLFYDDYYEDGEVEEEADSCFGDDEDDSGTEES
# Chain of UniProt Q13404 (whole entry, looked up): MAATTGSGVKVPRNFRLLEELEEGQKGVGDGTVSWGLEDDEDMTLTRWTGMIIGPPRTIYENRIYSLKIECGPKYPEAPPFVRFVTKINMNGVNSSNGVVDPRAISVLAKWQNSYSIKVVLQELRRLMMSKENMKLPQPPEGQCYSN
# Chain of UniProt Q8WVN8 (whole entry, looked up): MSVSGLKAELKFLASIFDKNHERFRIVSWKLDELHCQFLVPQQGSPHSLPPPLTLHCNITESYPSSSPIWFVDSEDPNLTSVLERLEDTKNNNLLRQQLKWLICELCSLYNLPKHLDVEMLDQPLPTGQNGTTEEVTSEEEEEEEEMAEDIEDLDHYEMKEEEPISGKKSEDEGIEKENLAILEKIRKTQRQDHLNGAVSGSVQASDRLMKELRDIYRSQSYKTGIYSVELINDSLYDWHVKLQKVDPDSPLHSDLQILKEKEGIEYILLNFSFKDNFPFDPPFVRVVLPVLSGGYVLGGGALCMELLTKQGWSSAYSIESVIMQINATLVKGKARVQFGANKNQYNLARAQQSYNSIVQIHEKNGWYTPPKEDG
# Chain of UniProt P62256 (whole entry, looked up): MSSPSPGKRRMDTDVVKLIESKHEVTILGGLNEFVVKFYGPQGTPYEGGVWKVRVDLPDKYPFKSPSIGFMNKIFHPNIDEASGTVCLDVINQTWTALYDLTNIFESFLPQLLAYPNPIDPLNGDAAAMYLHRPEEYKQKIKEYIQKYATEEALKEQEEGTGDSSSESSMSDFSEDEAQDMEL
# Chain of UniProt O14933 (whole entry, looked up): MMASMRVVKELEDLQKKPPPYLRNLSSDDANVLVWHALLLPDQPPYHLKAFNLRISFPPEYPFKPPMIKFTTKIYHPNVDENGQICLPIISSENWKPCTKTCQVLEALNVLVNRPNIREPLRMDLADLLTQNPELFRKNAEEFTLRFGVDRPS
# Chain of UniProt P51965 (whole entry, looked up): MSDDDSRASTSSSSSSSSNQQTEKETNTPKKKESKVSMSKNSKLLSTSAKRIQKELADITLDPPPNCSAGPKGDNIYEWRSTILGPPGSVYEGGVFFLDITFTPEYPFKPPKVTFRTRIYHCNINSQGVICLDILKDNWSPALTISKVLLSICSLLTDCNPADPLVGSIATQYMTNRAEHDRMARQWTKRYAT
# Chain of UniProt Q5VVX9 (whole entry, looked up): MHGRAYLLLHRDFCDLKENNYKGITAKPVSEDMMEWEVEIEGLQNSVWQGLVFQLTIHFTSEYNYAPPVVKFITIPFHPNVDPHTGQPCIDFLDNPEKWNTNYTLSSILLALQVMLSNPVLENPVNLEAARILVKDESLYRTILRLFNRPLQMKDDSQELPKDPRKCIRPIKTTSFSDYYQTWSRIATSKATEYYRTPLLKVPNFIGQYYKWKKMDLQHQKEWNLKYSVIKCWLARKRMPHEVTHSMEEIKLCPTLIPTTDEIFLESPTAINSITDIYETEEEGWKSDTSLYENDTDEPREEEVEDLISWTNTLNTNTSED
# Chain of UniProt P60604 (whole entry, looked up): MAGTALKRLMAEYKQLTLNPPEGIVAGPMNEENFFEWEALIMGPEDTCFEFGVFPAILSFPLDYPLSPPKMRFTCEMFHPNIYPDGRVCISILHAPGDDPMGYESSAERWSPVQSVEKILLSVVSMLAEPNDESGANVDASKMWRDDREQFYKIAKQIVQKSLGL
# Chain of UniProt Q96LR5 (whole entry, looked up): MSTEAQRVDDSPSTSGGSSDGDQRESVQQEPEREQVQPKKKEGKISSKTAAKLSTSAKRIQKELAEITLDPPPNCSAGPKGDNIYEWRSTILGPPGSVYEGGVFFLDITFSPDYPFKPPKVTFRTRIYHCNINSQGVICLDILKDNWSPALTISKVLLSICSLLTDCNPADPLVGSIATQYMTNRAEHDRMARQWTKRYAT
# Chain of UniProt P61088 (whole entry, looked up): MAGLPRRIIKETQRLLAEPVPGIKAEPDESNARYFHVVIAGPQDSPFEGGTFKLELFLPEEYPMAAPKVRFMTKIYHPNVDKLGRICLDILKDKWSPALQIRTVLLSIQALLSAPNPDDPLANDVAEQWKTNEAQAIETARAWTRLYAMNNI
# Chain of UniProt Q15819 (whole entry, looked up): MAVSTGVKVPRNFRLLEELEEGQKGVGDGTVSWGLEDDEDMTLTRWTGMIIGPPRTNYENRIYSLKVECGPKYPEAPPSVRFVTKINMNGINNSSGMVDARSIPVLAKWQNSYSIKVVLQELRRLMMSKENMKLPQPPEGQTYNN

# Sample 1
# Target: CCNB2, cyclin fold, Cln2 fusion (human)
# Technique: yeast growth competition, sequencing
# Sample: yeast
# Notes: strong parent motif
# Reference: not given
# Reading: higher = stronger binding
# Parent: E2F1 docking peptide (human); PPVKRRLDFETDH; partner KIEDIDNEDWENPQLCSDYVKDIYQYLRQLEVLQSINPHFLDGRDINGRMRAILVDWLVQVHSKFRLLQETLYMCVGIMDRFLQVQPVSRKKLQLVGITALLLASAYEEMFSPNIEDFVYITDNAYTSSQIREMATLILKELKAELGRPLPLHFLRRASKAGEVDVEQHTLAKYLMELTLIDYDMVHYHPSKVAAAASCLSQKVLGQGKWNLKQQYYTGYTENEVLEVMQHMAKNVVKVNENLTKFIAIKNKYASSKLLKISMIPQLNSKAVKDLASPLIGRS
Substitution,normalised enrichment score
D8Q,2.11
D8L,2.73
R5P,-0.709
D12C,3.54
P2L,2.95
P2H,2.71
D12P,3.38
K4D,0.306
K4Y,0.469
R5Y,0.498
D8V,2.76
E10S,3.09
R6H,2.21
P2K,3.18
L7Y,0.296
D8F,3.11
V3Y,0.773
E10A,2.64
V3R,0.403
R5A,1.39
R6I,1.91
D8K,1.92
V3K,0.878
R5D,0.0213
K4W,0.472

# Sample 2
# Substance: RNF141 RING domain (UniProt Q8WVD5)
# Chain of UniProt Q8WVD5 (whole entry, looked up): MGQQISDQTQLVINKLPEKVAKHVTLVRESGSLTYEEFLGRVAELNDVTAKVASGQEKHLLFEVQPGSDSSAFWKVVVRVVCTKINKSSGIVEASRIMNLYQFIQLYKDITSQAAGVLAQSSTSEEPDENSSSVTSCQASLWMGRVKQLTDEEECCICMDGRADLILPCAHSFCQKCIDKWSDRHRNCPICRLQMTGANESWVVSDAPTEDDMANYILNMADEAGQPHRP
# Technique: yeast two-hybrid
# Sample: yeast
# Notes: mostly zero background
# Reference: not given
# Reading: higher = stronger interaction
target,lacZ reporter activity
UBE2N UBC core domain (UniProt P61088),0
UBE2L6 UBC core domain (UniProt O14933),0
UBE2H UBC core domain (UniProt P62256),0
UBE2E1 UBC core domain (UniProt P51965),0
UBE2E2 UBC core domain (UniProt Q96LR5),0
UBE2V1 UBC core domain (UniProt Q13404),0
UBE2Q2 UBC core domain (UniProt Q8WVN8),0
UBE2U UBC core domain (UniProt Q5VVX9),0
UBE2G2 UBC core domain (UniProt P60604),0
UBE2V2 UBC core domain (UniProt Q15819),0
CDC34 UBC core domain (UniProt P49427),0

# Sample 3
# Target: RING finger protein unkempt homolog, zinc fingers 1-6, GST-SBP tag (UNK, Homo sapiens, UniProt Q9C0B0, residues 30-357)
# Technique: RNA Bind-n-Seq
# Molecule type: RNA
# Sample: in vitro
# Concentration: not given
# Notes: RNA with constant flanks, human and mouse sites, ends assumed
# Reference: input RNA pool
# Reading: higher = stronger binding
# All sequences stand within: GGGAGUUCUACAGUCCGACGAUC … CAACAGAGGAUUGAGCAUCA
# Target sequence (chain): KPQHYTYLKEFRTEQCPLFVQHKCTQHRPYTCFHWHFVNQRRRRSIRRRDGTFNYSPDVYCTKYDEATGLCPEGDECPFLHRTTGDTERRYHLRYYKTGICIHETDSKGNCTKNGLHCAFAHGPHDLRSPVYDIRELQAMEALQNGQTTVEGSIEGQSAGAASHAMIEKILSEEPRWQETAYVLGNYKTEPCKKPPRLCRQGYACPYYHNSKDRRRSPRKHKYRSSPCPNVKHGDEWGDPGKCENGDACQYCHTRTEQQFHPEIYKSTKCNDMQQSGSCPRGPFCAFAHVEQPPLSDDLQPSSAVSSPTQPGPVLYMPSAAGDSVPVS
Strand,bound/input enrichment [ratio]
UAGAGCUAGAUUCAAUCAGGUGUCUGAAAUGUGAGUUAAACAUUACUUUAUCCUUUGGUGUAGUUCUUAUUAUUUUCCAUUUAUUGUGCCUCUGGCAGCAGUGUUCCCUUUGAAAGGCCC,1.3
CGAUAGGAGUGGCACCGUGGAUCCCCAGGAGCUACAGAAGGCCCUGACGACUAUGGGAUUCAGGUUGAGCCCCCAAACUGUGAAUUCAGUUGCAAAGCGAUACAGCACCAGCGGGAAGAU,0.15
UCCUUUCAGCGGCGCGCGGCUGCAAGAUGGCGGUGCAGAUUUCCAAGAAGAGGAAGUUUGUAGCUGAUGGCAUCUUCAAAGCUGAGCUGAAUGAAUUUCUCACUCGGGAGCUGGCUGAAG,0.0901
CACAGAGGAGAUCUGCUGUUCCUCACGAAUUUCCGGGAGGACCCCAUCAGAGCUGGUGAAAUAGUUGUUUUUAAGGUUGAAGGAAGAGACAUUCCGAUAGUUCACAGAGUAAUCAAGGUU,2.63
GGAGCAGAUGCUGAUCUCAUUAUGCUUGGCCUUGCCACACAUGAACCGAACUUUACCAUUAUUAGAGAAGAAUUCAAACCAAACAAGCCCAAACCAUGUGGUCUUUGUAAUCAGUUUGGA,1.13
AUUUUACUUACAGAACCUCCCAUGAAUCCAACCAAAAACAGAGAGAAGAUUGUAGAGGUAAUGUUUGAAACUUACCAGUUUUCUGGUGUGUAUGUAGCCAUCCAGGCAGUUCUGACUUUG,0.295
AGACUAGCCUAUGCUGAAAACAUAGCUCUGCUGGCAGAAACAGCUCUGAGAUUCCUGGAAUUAGUACAGUUAAAAAAUCUUAAUAUGGAAAAUGACCCCAAUAAUGAAGAAAUAGAUGAG,22.9
GUGACACAGCAGCUUCACCAGAGCAUUUCCAACACCACAGACACACACACGCACGCACACACACAAACACACAUGCACACACACACAUCUCAUUUCUCUAGUGUCUUUUGCCUUUAAAAA,1.09
AGGUAGUCUUUGACACUCUCUGUGGUAGCUCUCAAGGCCCACGGUUGUUCAGUCCCAUCCUUCAGGGGUGCUUGGGCGGGUUCUGCCCUUGCAGCCUUCGCACUAAUACCAAGGUAGCUC,0.0824
UGAAACAGGGAGAGGCUGACACCCCCCCACCCUCCACCCCCGUGUCCACAACCCCCAACCUAGCUGUCUUCUCAGGGCCUGCCACCCAAAUAAGUCUGGCCCUAGCCUCAACUCUCUCUC,1.32
GAGUCAGCAUAUUUGAGAGGGCAGCGUUUUGCCAGUACCUAUCUUCUUUCUACAGAAGAUAGCUUUUUAAGAAAUAAGAGUUCCACAUUGAGUGGCUGUCAGACACAGAUUUCACUGUGA,0.277

# Sample 4
# Target: Interferon regulatory factor 7, full length, phosphomimetic (IRF7, Homo sapiens, UniProt Q92985, residues 1-503, S471D/S472D/S475D/S476D/S477D/S483D/S484D/S487D)
# Chain of UniProt Q92985 (whole entry, unmodified, looked up): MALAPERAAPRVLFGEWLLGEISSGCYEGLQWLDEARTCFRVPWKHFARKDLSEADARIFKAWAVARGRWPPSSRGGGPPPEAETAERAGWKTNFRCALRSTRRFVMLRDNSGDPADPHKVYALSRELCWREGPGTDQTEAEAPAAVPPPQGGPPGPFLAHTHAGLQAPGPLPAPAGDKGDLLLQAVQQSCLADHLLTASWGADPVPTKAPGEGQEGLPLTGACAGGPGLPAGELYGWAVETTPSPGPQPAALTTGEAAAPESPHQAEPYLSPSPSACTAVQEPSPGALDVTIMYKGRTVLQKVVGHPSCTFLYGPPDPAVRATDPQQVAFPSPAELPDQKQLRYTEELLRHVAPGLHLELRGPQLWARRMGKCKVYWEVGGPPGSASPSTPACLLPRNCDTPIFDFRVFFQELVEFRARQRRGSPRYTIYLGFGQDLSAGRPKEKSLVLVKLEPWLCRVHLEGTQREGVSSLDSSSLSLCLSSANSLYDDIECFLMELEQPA
# Technique: protein-binding microarray
# Molecule type: double-stranded DNA, one strand shown
# Sample: in vitro
# Concentration: 2200 nM top
# Notes: 60-bp whole probe
# With: salmon DNA 0.4 mg/ml
# Reference: random background probes
# Reading: higher = stronger binding
# All sequences stand within: GCCTAGCAC … GTCTTGATTCGCTTGACGCTGCTG
Strand,fitted relative affinity [z-score]
GTCGGACTGGGTATCGGGACGTGCTAG,-0.726
AGAAATTTTTTTTCTAACTAGTGCTAG,-0.548
GACGGACAGGGTCTCGGGACGTGCTAG,-1.13
AGCAGGGGCGCAGGTAGGTGGTGCTAG,-1.25
TCAACTCTCAGAATCTCACTGTGCTAG,0.677
AATTTTGTCATCTATAATGGAGTGCTA,0.0131
GCTTCCTCACCTGATGCCTCGTGCTAG,1.69
TTAGGTTTTCTTATCCTTTAGTGCTAG,1.37
AGGAATTTCCCACTTTCACTGTGCTAG,3.12
GTATTTTTCTAAACCATTTTGTGCTAG,1.22
TGAGGTCTCGGACTGGGTTAGTGCTAG,-0.638
TTGGATCTCAGTTTCGATTAGTGCTAG,5.91
TTTGACATCTTCATCAACTAGTGCTAG,0.79
GACGAACTGGGGTATCGACACGTGCTA,0.0385
TCAAGTTTCCCTCCCTGACTGTGCTAG,2.18
TCACCTTTCAATCCTAGACTGTGCTAG,1.79
